Measured values of several laboratories.

Structure (SMILES)	assay	test system	conditions	how to read	disease control rate
CCN1CCN(Cc2ccc(Nc3ncc(F)c(-c4cc(F)c5nc6n(c5c4)[C@H](C)CCC6)n3)nc2)CC1	RECIST v1.1	advanced solid tumour patients	400 mg, Phase Ia monotherapy	–	100%
COc1ccc([C@@H](O)c2cc(-c3ncnc4cc(N5CCOCC5)ccc34)c(F)cc2Cl)nn1	RECIST version 1.1	patients, advanced solid tumours	300 mg twice daily, with: avelumab	reference: patients	0%
CN[C@@H](C)C(=O)N[C@H]1CN(S(=O)(=O)c2cccc(S(=O)(=O)N3CC[C@H]4CC[C@@H](C(=O)NC(c5ccccc5)c5ccccc5)N4C(=O)[C@@H](NC(=O)[C@H](C)NC)C3)c2)CC[C@H]2CC[C@@H](C(=O)NC(c3ccccc3)c3ccccc3)N2C1=O	RECIST 1.1	advanced pancreatic cancer patients	dose not given, prior therapy, with: AG	–	50%
Cc1cc(C)c(CNC(=O)c2cc(Cl)c3c(c2C)O[C@@](C)([C@H]2CC[C@H](N(C)C)CC2)O3)c(=O)[nH]1	IWG criteria, CR or PR or SD	relapsed/refractory PTCL patients	dose not given	–	62%
CC1(C)CCC2(CC1)N[C@@H](C(=O)N[C@@H]1CC[C@@H](C(N)=O)OC1)[C@H](c1ccnc(Cl)c1F)[C@]21C(=O)Nc2cc(Cl)ccc21	RECIST	patients with solid tumours	dose not given	reference: patients	43.8%
CO[C@H]1C[C@@H]2CC[C@@H](C)[C@@](O)(O2)C(=O)C(=O)N2CCCC[C@H]2C(=O)O[C@H]([C@H](C)C[C@@H]2CC[C@@H](OC(=O)NCCOCCOCCOCCOCCOCCOCCOCCOCCC(=O)N3CCc4cc(Cn5nc(-c6ccc7oc(N)nc7c6)c6c(N)ncnc65)ccc4C3)[C@H](OC)C2)C[C@@H](O)[C@H](C)/C=C(\C)[C@@H](O)[C@@H](OC)C(=O)[C@H](C)C[C@H](C)/C=C/C=C/C=C/1C	RECIST v1.1	patients with advanced solid tumours	6 mg or higher	–	64%
COc1nnc2ccc(N3CCC(c4ccc(OCCN5CCN(C)C(=O)[C@H]5C)cc4)CC3)nn12	–	relapsed/refractory solid tumour or lymphoma patients	dose not given, 6 weeks	–	48.5%
COc1cc2cc(-c3ccc(CC(=O)Nc4cc(C(C)(C)C(F)(F)F)no4)cn3)cnc2cc1OC	RECIST v1.1	RET-altered advanced solid tumour patients	oral, 20 mg once daily, phase I	–	0%

Some of these lines once more:
Structure (SMILES)	assay	test system	conditions	how to read	disease control rate
Cc1cc(C)c(CNC(=O)c2cc(Cl)c3c(c2C)O[C@@](C)([C@H]2CC[C@H](N(C)C)CC2)O3)c(=O)[nH]1	IWG criteria, CR or PR or SD	relapsed/refractory PTCL patients	dose not given	–	62%
